# Results from different studies.
# ± marks the error that the study gave.
# CA2: Carbonic anhydrase 2 (CA2, Homo sapiens, UniProt P00918)
# Chymotrypsin-C: Chymotrypsin-C (Homo sapiens, UniProt Q99895)
# UniProt Q99895, sequence (whole entry, looked up): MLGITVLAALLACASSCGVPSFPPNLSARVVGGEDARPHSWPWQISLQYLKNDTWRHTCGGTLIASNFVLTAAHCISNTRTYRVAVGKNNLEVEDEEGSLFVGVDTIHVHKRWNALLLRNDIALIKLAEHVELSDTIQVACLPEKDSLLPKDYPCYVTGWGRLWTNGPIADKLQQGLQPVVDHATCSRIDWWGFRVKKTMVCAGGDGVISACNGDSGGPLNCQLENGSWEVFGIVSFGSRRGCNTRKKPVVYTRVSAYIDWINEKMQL
# UniProt P47901, sequence (whole entry, looked up): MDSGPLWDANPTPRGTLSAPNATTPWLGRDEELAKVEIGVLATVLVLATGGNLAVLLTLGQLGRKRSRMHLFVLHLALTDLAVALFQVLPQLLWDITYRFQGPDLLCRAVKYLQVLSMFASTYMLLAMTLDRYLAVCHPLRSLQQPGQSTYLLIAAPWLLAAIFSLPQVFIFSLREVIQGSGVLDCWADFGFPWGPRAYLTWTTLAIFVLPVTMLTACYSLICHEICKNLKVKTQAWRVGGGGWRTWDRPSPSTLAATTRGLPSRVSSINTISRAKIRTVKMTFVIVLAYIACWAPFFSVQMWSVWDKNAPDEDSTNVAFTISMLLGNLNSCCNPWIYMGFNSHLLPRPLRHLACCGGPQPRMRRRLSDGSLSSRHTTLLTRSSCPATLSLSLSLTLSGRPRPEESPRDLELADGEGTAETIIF
# UniProt P41143, sequence (whole entry, unmodified, looked up): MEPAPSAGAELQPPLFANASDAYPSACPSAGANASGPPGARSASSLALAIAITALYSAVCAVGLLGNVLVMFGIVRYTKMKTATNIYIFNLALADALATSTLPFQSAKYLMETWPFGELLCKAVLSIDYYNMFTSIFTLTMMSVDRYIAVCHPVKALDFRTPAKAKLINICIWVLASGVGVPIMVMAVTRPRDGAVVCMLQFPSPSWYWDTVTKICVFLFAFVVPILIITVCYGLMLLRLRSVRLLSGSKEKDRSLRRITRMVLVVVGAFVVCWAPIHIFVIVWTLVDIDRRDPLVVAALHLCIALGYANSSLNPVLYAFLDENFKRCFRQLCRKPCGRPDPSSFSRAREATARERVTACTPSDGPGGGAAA
# UniProt P21917, sequence (whole entry, looked up): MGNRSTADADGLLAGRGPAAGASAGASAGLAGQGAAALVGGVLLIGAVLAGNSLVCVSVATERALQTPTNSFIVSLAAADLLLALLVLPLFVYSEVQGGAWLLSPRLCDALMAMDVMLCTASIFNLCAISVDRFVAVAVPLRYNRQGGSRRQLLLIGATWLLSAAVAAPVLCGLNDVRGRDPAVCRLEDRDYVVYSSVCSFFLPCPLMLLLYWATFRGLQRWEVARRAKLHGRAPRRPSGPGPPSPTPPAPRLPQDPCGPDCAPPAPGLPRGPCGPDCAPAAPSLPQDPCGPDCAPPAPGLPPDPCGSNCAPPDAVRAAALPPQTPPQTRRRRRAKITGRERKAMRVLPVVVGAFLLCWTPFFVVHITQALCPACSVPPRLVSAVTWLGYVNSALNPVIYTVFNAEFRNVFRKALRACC
# UniProt Q02790, sequence (whole entry, looked up): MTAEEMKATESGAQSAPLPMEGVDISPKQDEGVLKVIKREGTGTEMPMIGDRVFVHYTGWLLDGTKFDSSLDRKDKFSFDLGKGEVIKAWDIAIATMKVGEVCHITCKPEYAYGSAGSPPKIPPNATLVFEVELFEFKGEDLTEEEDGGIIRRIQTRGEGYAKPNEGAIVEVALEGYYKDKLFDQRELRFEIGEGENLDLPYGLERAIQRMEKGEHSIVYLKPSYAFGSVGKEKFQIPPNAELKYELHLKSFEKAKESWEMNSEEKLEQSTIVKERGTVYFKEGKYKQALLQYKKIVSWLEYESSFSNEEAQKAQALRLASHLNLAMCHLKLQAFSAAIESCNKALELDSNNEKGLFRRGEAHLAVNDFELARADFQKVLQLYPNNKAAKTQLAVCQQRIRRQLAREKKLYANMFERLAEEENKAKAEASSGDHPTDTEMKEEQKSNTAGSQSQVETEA
# UniProt Q07440, sequence (whole entry, unmodified, looked up): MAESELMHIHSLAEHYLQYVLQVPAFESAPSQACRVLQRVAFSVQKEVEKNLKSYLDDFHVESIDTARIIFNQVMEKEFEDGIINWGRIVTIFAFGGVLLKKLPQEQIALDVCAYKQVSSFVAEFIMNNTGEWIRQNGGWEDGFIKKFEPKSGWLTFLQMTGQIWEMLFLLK
# UniProt O43570, sequence (whole entry, looked up): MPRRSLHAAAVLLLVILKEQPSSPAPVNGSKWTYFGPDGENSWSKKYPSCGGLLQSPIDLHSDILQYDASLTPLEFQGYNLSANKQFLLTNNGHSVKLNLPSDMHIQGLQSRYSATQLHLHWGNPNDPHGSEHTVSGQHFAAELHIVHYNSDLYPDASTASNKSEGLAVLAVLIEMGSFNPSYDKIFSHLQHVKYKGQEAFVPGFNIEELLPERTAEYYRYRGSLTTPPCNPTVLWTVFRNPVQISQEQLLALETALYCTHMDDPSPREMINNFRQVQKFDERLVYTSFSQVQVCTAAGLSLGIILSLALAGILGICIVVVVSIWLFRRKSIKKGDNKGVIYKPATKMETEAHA
# UniProt P47936, sequence (whole entry, looked up): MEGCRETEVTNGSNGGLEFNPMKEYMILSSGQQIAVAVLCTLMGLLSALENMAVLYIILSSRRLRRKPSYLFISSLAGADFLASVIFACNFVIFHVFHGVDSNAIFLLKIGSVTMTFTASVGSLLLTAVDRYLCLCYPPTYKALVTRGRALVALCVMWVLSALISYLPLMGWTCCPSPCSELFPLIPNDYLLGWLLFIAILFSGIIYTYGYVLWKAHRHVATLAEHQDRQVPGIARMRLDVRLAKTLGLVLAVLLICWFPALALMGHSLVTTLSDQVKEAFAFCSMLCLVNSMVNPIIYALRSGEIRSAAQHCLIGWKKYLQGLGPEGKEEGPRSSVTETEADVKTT
# UniProt P28335, sequence (whole entry, looked up): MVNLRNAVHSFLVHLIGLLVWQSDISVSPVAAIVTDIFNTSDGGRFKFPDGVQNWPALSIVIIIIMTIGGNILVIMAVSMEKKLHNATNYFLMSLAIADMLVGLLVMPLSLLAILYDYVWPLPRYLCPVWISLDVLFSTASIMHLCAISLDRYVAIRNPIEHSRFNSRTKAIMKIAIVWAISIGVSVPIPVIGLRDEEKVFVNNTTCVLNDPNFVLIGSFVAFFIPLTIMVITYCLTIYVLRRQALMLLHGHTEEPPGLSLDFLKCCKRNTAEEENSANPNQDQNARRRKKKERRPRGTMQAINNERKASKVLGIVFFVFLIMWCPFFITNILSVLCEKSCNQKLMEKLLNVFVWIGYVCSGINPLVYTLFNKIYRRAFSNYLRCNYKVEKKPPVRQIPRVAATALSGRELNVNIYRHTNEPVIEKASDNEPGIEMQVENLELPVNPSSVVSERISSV
# UniProt P12821, sequence (whole entry, looked up): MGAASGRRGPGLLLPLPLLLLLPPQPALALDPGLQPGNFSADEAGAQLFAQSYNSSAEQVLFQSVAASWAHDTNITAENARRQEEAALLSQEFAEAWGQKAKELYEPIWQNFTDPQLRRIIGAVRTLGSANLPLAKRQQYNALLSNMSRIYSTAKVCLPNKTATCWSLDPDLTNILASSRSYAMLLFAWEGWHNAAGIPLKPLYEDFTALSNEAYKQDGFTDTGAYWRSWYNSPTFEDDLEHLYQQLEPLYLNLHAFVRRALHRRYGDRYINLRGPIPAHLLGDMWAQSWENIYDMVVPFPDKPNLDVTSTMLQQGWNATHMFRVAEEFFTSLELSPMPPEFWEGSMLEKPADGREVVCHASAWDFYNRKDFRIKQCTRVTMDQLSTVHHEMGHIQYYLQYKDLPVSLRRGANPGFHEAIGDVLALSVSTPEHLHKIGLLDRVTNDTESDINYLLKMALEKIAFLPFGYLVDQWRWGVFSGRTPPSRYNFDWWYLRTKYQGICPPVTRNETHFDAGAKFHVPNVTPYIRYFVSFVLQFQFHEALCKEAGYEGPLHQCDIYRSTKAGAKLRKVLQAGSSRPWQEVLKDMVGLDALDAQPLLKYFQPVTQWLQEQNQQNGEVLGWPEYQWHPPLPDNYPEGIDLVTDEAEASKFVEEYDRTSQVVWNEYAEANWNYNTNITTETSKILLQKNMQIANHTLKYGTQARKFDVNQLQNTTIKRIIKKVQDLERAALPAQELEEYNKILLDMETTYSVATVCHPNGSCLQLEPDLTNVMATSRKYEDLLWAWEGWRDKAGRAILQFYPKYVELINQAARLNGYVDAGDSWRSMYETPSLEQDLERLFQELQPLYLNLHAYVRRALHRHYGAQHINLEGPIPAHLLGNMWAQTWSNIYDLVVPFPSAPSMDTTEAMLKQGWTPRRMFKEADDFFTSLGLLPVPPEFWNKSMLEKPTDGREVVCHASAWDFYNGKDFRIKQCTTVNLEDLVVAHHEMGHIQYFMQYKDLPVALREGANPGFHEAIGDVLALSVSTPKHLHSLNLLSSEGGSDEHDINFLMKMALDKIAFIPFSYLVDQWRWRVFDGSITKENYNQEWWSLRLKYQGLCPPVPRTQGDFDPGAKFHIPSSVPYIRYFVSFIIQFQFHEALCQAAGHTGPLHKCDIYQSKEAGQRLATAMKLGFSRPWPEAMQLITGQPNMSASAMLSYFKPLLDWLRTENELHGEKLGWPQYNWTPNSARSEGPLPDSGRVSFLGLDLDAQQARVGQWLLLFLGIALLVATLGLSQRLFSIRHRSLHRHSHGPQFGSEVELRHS
Structure (SMILES),target,observed,mode,technique,notes,Ki
Cc1ccc(S(=O)(=O)Oc2ccc(/C=N/NS(=O)(=O)c3ccc(Cl)cc3)cc2)cc1,CA2,enzyme activity,inhibitor,absorbance,,74.5 nM
CC(C)[C@H](N)C(=O)N[C@@H](CC(N)=O)C(=O)N[C@@H](Cc1ccc(O)cc1)C(=O)N[C@@H](CC(=O)O)C(=O)O,"ACE (Homo sapiens, UniProt P12821)",enzyme activity,inhibitor,absorbance,,474000 nM
O=[N+]([O-])c1ccc2c(N=Nc3ccc4ccccc4c3O)c(O)cc(S(=O)(=O)O)c2c1,"Bcl-2-related protein A1 (Mus musculus, UniProt Q07440, C113S/P104K)",ligand displacement,,FP,,16200 nM
COc1ccc(CC[C@H]2OC(=O)[C@@H]3CCCCN3C(=O)C(=O)C(C)(C)COC(=O)/C=C/CCN(C)C(=O)[C@H](CC(C)C)N(C)C(=O)[C@@H]3CCCN3C(=O)[C@H](Cc3ccccc3)N(C)C(=O)[C@H](c3ccccc3)NC(=O)CCC(=O)Nc3cccc2c3)cc1OC,"FKBP4 (Homo sapiens, UniProt Q02790)",enzyme activity,inhibitor,,,176 nM
CSCC[C@@H]1NC(=O)[C@H](Cc2ccccc2)NC(=O)[C@H]([C@@H](C)O)NC(=O)[C@@H]2CSSC[C@@H]3NC(=O)[C@H]([C@@H](C)O)NC(=O)[C@H](CC(N)=O)NC(=O)[C@H](CSSC[C@@H](C(=O)N[C@@H](CC(=O)O)C(=O)N[C@@H](CCC(N)=O)C(=O)O)NC(=O)[C@H](CC(C)C)NC1=O)NC(=O)[C@H](CCCCN)NC(=O)[C@H](CC(=O)O)NC(=O)[C@H](CCCCN)NC(=O)[C@H](Cc1ccccc1)NC(=O)[C@H]([C@@H](C)O)NC(=O)[C@H]([C@@H](C)O)NC(=O)CNC(=O)[C@@H]1CCCN1C(=O)[C@H](CCC(=O)O)NC(=O)[C@@H](NC(=O)[C@@H](NC(=O)[C@@H](NC(=O)[C@H](CCC(=O)O)NC(=O)[C@H](CO)NC(=O)CN)C(C)C)[C@@H](C)O)CSSC[C@H](NC(=O)[C@H](CCCNC(=N)N)NC3=O)C(=O)NCC(=O)N[C@@H](CO)C(=O)N[C@@H](CC(=O)O)C(=O)NCC(=O)N[C@@H](CCCCN)C(=O)N[C@@H](CO)C(=O)N[C@@H](C)C(=O)N[C@@H](Cc1ccc(O)cc1)C(=O)N2,Chymotrypsin-C,enzyme activity,inhibitor,,,1.4 ± 0.16 nM
Cc1cc(O)cc(C)c1C[C@H](N)C(=O)N[C@H](CCCNC(=N)N)C(=O)N[C@@H](Cc1ccccc1)C(=O)N(C)CC(=O)N(C)Cc1cc(C(F)(F)F)cc(C(F)(F)F)c1,"OPRD1 (Homo sapiens, UniProt P41143, I277A)",,,,,6.14 ± 1.04 nM
COc1ccccc1N1CCN(CCCCN2CCCc3ccccc3C2=O)CC1,"DRD4 (Homo sapiens, UniProt P21917)",ligand displacement,,radioligand,,3.1 nM
CC(C)C[C@@H]1NC(=O)[C@H](CC(C)C)NC(=O)[C@H](CC(C)C)NC(=O)[C@H]([C@@H](C)O)NC(=O)[C@@H]2CSSC[C@@H]3NC(=O)[C@H]([C@@H](C)O)NC(=O)[C@H](CC(N)=O)NC(=O)[C@H](CSSC[C@@H](C(=O)N[C@@H](CC(=O)O)C(=O)N[C@@H](CCC(N)=O)C(=O)O)NC1=O)NC(=O)[C@H](CCCCN)NC(=O)[C@H](CC(=O)O)NC(=O)[C@H](CCCCN)NC(=O)[C@H](Cc1ccccc1)NC(=O)[C@H]([C@@H](C)O)NC(=O)[C@H]([C@@H](C)O)NC(=O)CNC(=O)[C@@H]1CCCN1C(=O)[C@H](CCC(=O)O)NC(=O)[C@@H](NC(=O)[C@@H](NC(=O)[C@@H](NC(=O)[C@H](CCC(=O)O)NC(=O)[C@H](CO)NC(=O)CN)C(C)C)[C@@H](C)O)CSSC[C@H](NC(=O)[C@H](CCCNC(=N)N)NC3=O)C(=O)NCC(=O)N[C@@H](CO)C(=O)N[C@@H](CC(=O)O)C(=O)NCC(=O)N[C@@H](CCCCN)C(=O)N[C@@H](CO)C(=O)N[C@@H](C)C(=O)N[C@@H](Cc1c[nH]c3ccccc13)C(=O)N2,Chymotrypsin-C,enzyme activity,inhibitor,,,2.09 ± 0.65 nM
COc1c(O)cc2c3c1-c1ccccc1CC3N(C)CC2 (centres unmarked),"HTR2C (Homo sapiens, UniProt P28335)",ligand displacement,,radioligand,cell membranes,20.9 nM
NC1CCSC1=O (centres unmarked),CA2,CO2 hydration activity,inhibitor,stopped-flow CO2 hydration,room temperature preincubation,> 100000 nM
O=S(=O)(N/N=C/c1ccc(OS(=O)(=O)c2ccc(Br)cc2)cc1)c1ccc(Cl)cc1,CA2,enzyme activity,inhibitor,absorbance,,97.8 nM
Cn1c(C(C)(C)C)c/c(=N\C(=O)c2cc(C(F)(F)F)ccc2OCC(C)(C)O)n1CC1CCC1,"Cnr2 (Mus musculus, UniProt P47936)",ligand displacement,,radioligand,,1.33 nM
Cc1c(Cl)c(=O)oc2cc(OCCCCCC[Se]C#N)ccc12,"CA12 (Homo sapiens, UniProt O43570)",enzyme activity,inhibitor,stopped-flow,,90.4 nM
COC1c2cc(C(C)C)c(O)c(O)c2C23CCCC(C)(C)C2C1OC3=O (centres unmarked),CA2,enzyme activity,inhibitor,,,3.3 nM
O=S(=O)(N/N=C/c1ccc(OS(=O)(=O)c2ccc(Cl)cc2)cc1)c1ccc(Cl)cc1,CA2,enzyme activity,inhibitor,absorbance,,90.4 nM
CC(C)[C@@H]1NC(=O)[C@H](Cc2ccccc2)NC(=O)[C@H](Cc2ccc(O)cc2)NC(=O)CCSSC[C@@H](C(=O)N2CCC[C@H]2C(=O)N[C@H](CCCNC(=N)N)C(=O)NCC(N)=O)NC(=O)[C@H](CC(N)=O)NC(=O)[C@H](C(C)C)NC(=O)[C@H](Cc2ccccc2)NC(=O)[C@H](Cc2ccc(O)cc2)NC(=O)CCSSC[C@@H](C(=O)N2CCC[C@H]2C(=O)N[C@H](CCCNC(=N)N)C(=O)NCC(N)=O)NC(=O)[C@H](CC(N)=O)NC1=O,"AVPR1B (Homo sapiens, UniProt P47901)",ligand displacement,,radioligand,,4.4 nM
COc1cc2c(cc1O)C(CCc1ccc(Cl)cc1)N(C)CC2 (centres unmarked),"ADRA2B (Homo sapiens, UniProt P18089)",cell-free assay,,radioligand,,480 nM
